Assay results pooled from the literature.
Numbers after ± are the reported error.
Cell line: A498

Cc1ccc(C2=Nn3c(N/N=C4/C(=O)Nc5ccc(Br)cc54)nnc3SC2)cc1
inhibition (cell growth or viability, SRB; 10 µM): 10%

COc1cc(CNC(=O)C[C@H](C)CCC=C(C)C)ccc1O
growth percent (SRB; 10 µM, 48 h): 104%

CC(=O)[O][Pt]1([O]C(C)=O)[O]C(=O)C(=O)[O]1.NC1CCCCC1N
IC50 (cell growth; 72 h): 22.4 ± 5.05 µM

COc1cc(CNC(=O)C[C@H](C)CCC=C(C)C)ccc1OCc1cn(-c2cccc([N+](=O)[O-])c2)nn1
growth percent (SRB; 10 µM, 48 h): 91.3%

O=C(O)c1ccc([P+]([Au-][Cl])(c2ccccc2)c2ccccc2)cc1
IC50 (cell viability, XTT; 72 h): 21 µM

CC(=O)OC[C@H]1O[C@@H](Sc2sc(C(=O)c3ccc(C)cc3)c(N)c2-c2nc3ccccc3s2)[C@H](OC(C)=O)[C@@H](OC(C)=O)[C@H]1OC(C)=O
growth (SRB; 10 µM, 48 h; relative to: untreated): 53.4%

O=C([O][Ti+2][O]C(=O)c1ccc([P+]([Au-][Cl])(c2ccccc2)c2ccccc2)cc1)c1ccc([P+]([Au-][Cl])(c2ccccc2)c2ccccc2)cc1.c1cc[cH-]c1.c1cc[cH-]c1
IC50 (cell viability, XTT; 24 h): 28 µM

Nc1ncnc2c1ncn2CCN1C(=O)/C(=N\N=C2/NC(=O)CS2)c2cc(F)ccc21
IC50 (cell growth or viability, SRB; 72 h): 191 µM

COc1cc(CNC(=O)C[C@H](C)CCC=C(C)C)ccc1OCc1cn(-c2ccc(C#N)cc2)nn1
growth percent (SRB; 10 µM, 48 h): 92.3%

O=C(O)CCCc1ccccc1
IC50 (cell growth or viability; 72 h): 925 µM

C=C1C(=O)OC2CC3=C[C@@H](C/C(C)=C/C(OC(=O)Cc4cccc5ccccc45)[C@H]12)OC3=O (stereo partly shown)
IC50 (cell growth or viability, MTT; 24 h): 0.79 µM

CC(=O)[O][Pt]([Cl])([Cl])[O]C(C)=O.N.N
IC50 (cell growth; 72 h): 20.1 ± 0.85 µM

COc1cc(CNC(=O)C[C@H](C)CCC=C(C)C)ccc1OCc1cn(-c2ccccc2Cl)nn1
growth percent (SRB; 10 µM, 48 h): 107%

CCCC(CCC)C(=O)[O][Pt]1([O]C(=O)C(CCC)CCC)[O]C(=O)C(=O)[O]1.NC1CCCCC1N
IC50 (cell growth; 72 h): 5.21 ± 1.1 µM

COc1cc(CNC(=O)C[C@H](C)CCC=C(C)C)ccc1OCc1cn(-c2ccc(Cl)cc2Cl)nn1
growth percent (SRB; 10 µM, 48 h): 59%

CCC(=C(c1ccc(Cl)cc1)c1ccc(OCCCN(C)C)cc1)c1ccc(OC)cc1
GI50 (cell growth or viability): 5.5 µM

CC/C=C\C/C=C\C/C=C\C/C=C\C/C=C\C/C=C\CCC(=O)Nc1ccn(C2OC(CO)C(O)C2(F)F)c(=O)n1 (stereo not shown)
GI50 (cell growth or viability, SRB): 0.0855 µM

COc1cc(CNC(=O)C[C@H](C)CCC=C(C)C)ccc1OCc1cn(-c2ccc(Cl)c(Cl)c2)nn1
growth percent (SRB; 10 µM, 48 h): 80%

CCCC(CCC)C(=O)[O][Pt]([Cl])([Cl])[O]C(C)=O.N.N
IC50 (cell growth; 72 h): 4.21 ± 0.95 µM
